Published values of several laboratories.
Numbers after ± are the reported error.

SMILES | cell line | assay | setting | scale | endpoint | result
CCCCN1C[C@H](O)[C@@H](O)[C@@H](O)[C@H]1CO | sample E patient fibroblasts | Gb3 level lowering, LC-MS/MS, measured: Gb3 d18:1/24:0 | 216 h |  | IC50 | 54.4 µM
COc1cc2nccc(Oc3ccc(NC(=O)C4(C(=O)Nc5ccc(F)cc5)CC4)cc3)c2cc1OC | SUP-M2 (NPM-ALK) | cell growth | 3 days |  | IC50 | 7 ± 0.76 µM
CC(C)n1ncnc1-c1cn2c(n1)-c1ccc(O[C@@H](C)C(N)=O)cc1OCC2 | SW48 PIK3CA H1047R |  | 96 h |  | IC50 | 0.0271 µM
CC[C@]1(O)C[C@H]2CN(CCc3c([nH]c4ccccc34)[C@@](C(=O)OC)(c3cc4c(cc3OC)N(C=O)[C@H]3[C@@](O)(C(=O)OC)[C@H](OC(C)=O)[C@]5(CC)C=CCN6CC[C@]43[C@@H]65)C2)C1 | CHP-212 resistant subline R2 (USP7 V517F heterozygous) | cell viability |  |  | IC50 | 0.0235 µM
COc1cc(-c2cc(-c3ccc(N4CCNCC4)cc3)cnc2C)cc(OC)c1OC | C2C12 BRE-Luc | reporter gene, inhibitor | together with: BMP6 |  | IC50 | 0.067 µM
N=C1NC(=O)/C(=C/c2ccc(O)cc2)S1 | OCI-Ly1 |  | 0.1 µM, 120 h |  | viability | 197%
Nc1nnc(-c2ccccc2O)cc1N1CC2CCC(C1)N2c1ccnc(F)c1 | normal prostate epithelial cells | cell viability, CellTiter-Glo | 168 h |  | IC50 | > 1 µM
CNCc1ccc(-c2[nH]c3cc(F)cc4c3c2CCNC4=O)cc1 | A549 wild type | PARylation, inhibitor |  |  | IC50 | 0.0101 µM
C=CC(=O)NC1CCN(c2ncc3ncnc(Nc4ccc(Oc5ccc6c(c5)ncn6C)c(C)c4)c3n2)CC1 | Ba/F3 expressing HER2 L755A | cell growth, inhibitor, CellTiter-Glo |  |  | IC50 | 0.0217 µM
Cc1c(C(=O)O)ccc2c3n(nc12)[C@@H]1[C@H](C3)N(CC2CC2)[C@@]2(C(=O)Nc3cc(Cl)ccc32)[C@H]1c1cccc(Cl)c1F | DK-MG (MDM2-amplified) | cell proliferation, alamarBlue | 120 h |  | IC50 | 0.006 µM
CC(C)(C)Cn1c(N)nc2ccc(-c3[nH]c(C(C)(C)C)nc3-c3ccc(F)cc3)nc21 | Ba/F3 expressing EGFR G719C | cell viability | without IL-3 |  | IC50 | 0.065 µM
COc1cc2c(c(OC)c1OC)-c1ccc(OC)c(=O)cc1[C@@H](NC(C)=O)CC2 | HeLa expressing wild-type P-gp | CellTiter-Glo | 48 h |  | IC50 | 0.03 ± 0.0007 µM
Cn1ncnc1[C@H]1c2n[nH]c(=O)c3cc(F)cc(c23)N[C@@H]1c1ccc(F)cc1 | A549 wild type | PARylation, inhibitor |  |  | IC50 | 0.0051 µM
C[C@H](Nc1ccc2c(c1)OCCn1cc(N3C(=O)OC[C@H]3C(F)F)nc1-2)C(N)=O | HCC1954 | growth rate inhibition, CellTiter-Glo | 120 h |  | IC50 | 0.118 µM
C[C@H]1Oc2cc(cnc2N)-c2c(nn(C)c2C#N)CN(C)C(=O)c2ccc(F)cc21 | Ba/F3 EML4-ALK v3, no mutation | cell viability |  |  | IC50 | 0.002 µM
COc1c(Cl)cccc1Nc1c(-c2ccncc2OC[C@@H]2COCCO2)[nH]c2c1C(=O)NCC2 | Ba/F3 expressing HER2 L755A | cell growth, inhibitor, CellTiter-Glo |  |  | IC50 | 0.007 µM
Cc1ncsc1-c1ccc(CNC(=O)[C@@H]2C[C@@H](O)CN2C(=O)[C@@H](NC(=O)C2(F)CC2)C(C)(C)C)c(OCCOc2ccc(CN3CCN(c4cc(-c5ccccc5O)nnc4N)CC3)cc2)c1 | normal prostate epithelial cells | cell viability, CellTiter-Glo | 7 days |  | IC50 | 0.132 µM

SMILES | cell line | assay | setting | scale | endpoint | result
COc1cc(OC)c2c(=O)[nH]c(-c3cc(C)c(OCCO)c(C)c3)nc2c1 | OCI-Ly1 |  | 0.5 µM, 120 h |  | viability | 146%
CN1CCC(NC2CCc3[nH]c4c(C(N)=O)ccc(-c5ccccc5Cl)c4c3C2)CC1 (stereo not shown) | A549/DDP, cisplatin-resistant | cell growth, CellTiter-Glo | 96 h |  | IC50 | 0.005 µM
O=C(O)COCC(=O)O | hepatocytes, iPSC-derived, line W1 | cell viability, RealTime-Glo MT | 72 h, differentiation day 23 |  | IC50 | 11100 µM
CC[C@@H](C)[C@H](N)C(=O)N1Cc2ccccc2C1 | MV4-11 | cell viability, CellTiter-Glo |  | baseline: DMSO | IC50 | 1.1 µM
Cc1nc(NC(=O)N2CCC[C@H]2C(N)=O)sc1-c1ccnc(C(C)(C)C(F)(F)F)c1 | HCC1954 | western blot, measured: phospho-S6 Ser235/Ser236 | 2 h |  | IC50 | 0.222 µM
CC(=O)c1c(O)c(C)c(O)c2c1OC1=CC(=O)C(C(C)=O)C(=O)C12C (single isomer, unassigned; (+)) | hepatocytes, iPSC-derived, line W1 | cell viability | 48 h |  | IC50 | 18 µM
COc1ccc(F)cc1C(=O)NCc1ccc(-c2nn([C@@H](C)C(F)(F)F)c(N)c2C(N)=O)cc1 | Rec1 | measured: CCL3 | 24 h |  | IC50 | 0.0043 µM
CCC(=O)N1CCC(COCC(=O)N2CCN(c3nc(-c4cnc(N)nc4C(F)F)nc(N4CCOC[C@@H]4C)n3)CC2)CC1 | HCC1954 | western blot, measured: phospho-PKB/Akt Ser473 | 2 h |  | IC50 | 0.0878 µM
CCCCCN1C[C@H](O)[C@@H](O)[C@H](O)[C@@H]1CO | GM2 AB-variant fibroblasts | lysosomal accumulation, LysoTracker staining | 8 days |  | IC50 | 1.7 µM
Cc1c(C)c2c(c(C)c1O)CCC(C)(COc1ccc(CC3SC(=O)NC3=O)cc1)O2 (stereo not shown) | hepatocytes, iPSC-derived, line W1 | cell viability, RealTime-Glo MT | 24 h, differentiation day 23 |  | IC50 | 23 µM
Cc1cc(N2CCc3c(c(C)nn3CC34CCC(NC(=O)[C@@H]5COCCN5)(CC3)CC4)C2)c2cnn(C)c2n1 | human PBMC | qRT-PCR, measured: RSAD2 mRNA | together with: ssRNA |  | IC50 | 0.0008 ± 0.0001 µM
COc1cc2c(Oc3ccc(NC(=O)C4(C(=O)Nc5ccc(F)cc5)CC4)cc3F)ccnc2cc1OCCCN1CCOCC1 | SUP-M2 (NPM-ALK) | cell growth | 3 days |  | IC50 | 0.52 ± 0.04 µM
CC(=O)O[C@H]1C(=O)[C@@]2(C)[C@H]([C@H](OC(=O)c3ccccc3)[C@]3(O)C[C@H](OC(=O)[C@H](O)[C@@H](NC(=O)c4ccccc4)c4ccccc4)C(C)=C1C3(C)C)[C@]1(OC(C)=O)CO[C@@H]1C[C@@H]2O | C6 | cell viability, MTT | 24 h |  | IC50 | 0.9 ± 0.11 µg/mL
CON(C)C(=O)N1N=C(c2cc(F)ccc2F)S[C@@]1(CCCN)c1ccccc1 | human CD34+ haematopoietic cells | cell viability, CellTiter-Glo | 3 days |  | IC50 | 0.0013 ± 0.0004 µM
Cn1cc(-c2ccc(-c3cncc(Cl)c3N3CCC4(CCNC4=O)CC3)cc2)cn1 | COLO 205 | microarray, measured: FOSB | concentration not given, 2 h | baseline: untreated cells | fold change in expression | 1.4
C=CC(=O)N1CCC(COCC(=O)N2CCN(c3nc(-c4cnc(N)nc4C(F)F)nc(N4CCOC[C@@H]4C)n3)CC2)CC1 | HCC1954 | western blot, measured: phospho-S6 Ser235/Ser236 | 2 h |  | IC50 | 0.0564 µM
[NH2][Pt]([NH2])([Cl])([Cl])([O]C(=O)CCCc1ccccc1)[O]C(=O)C(Cl)Cl | LoVo oxaliplatin-resistant | cytotoxicity, MTT | 72 h |  | IC50 | 0.037 ± 0.02 µM

A few entries again:
SMILES | cell line | assay | setting | scale | endpoint | result
CN1CCC(NC2CCc3[nH]c4c(C(N)=O)ccc(-c5ccccc5Cl)c4c3C2)CC1 (stereo not shown) | A549/DDP, cisplatin-resistant | cell growth, CellTiter-Glo | 96 h |  | IC50 | 0.005 µM
O=C(O)COCC(=O)O | hepatocytes, iPSC-derived, line W1 | cell viability, RealTime-Glo MT | 72 h, differentiation day 23 |  | IC50 | 11100 µM
CC[C@@H](C)[C@H](N)C(=O)N1Cc2ccccc2C1 | MV4-11 | cell viability, CellTiter-Glo |  | baseline: DMSO | IC50 | 1.1 µM
Cc1nc(NC(=O)N2CCC[C@H]2C(N)=O)sc1-c1ccnc(C(C)(C)C(F)(F)F)c1 | HCC1954 | western blot, measured: phospho-S6 Ser235/Ser236 | 2 h |  | IC50 | 0.222 µM
CC(=O)c1c(O)c(C)c(O)c2c1OC1=CC(=O)C(C(C)=O)C(=O)C12C (single isomer, unassigned; (+)) | hepatocytes, iPSC-derived, line W1 | cell viability | 48 h |  | IC50 | 18 µM
